{"data": "Published values collected from several papers", "note": "Each line is one published result; not all experiments were run side by side. Several values in a cell are separate wells, animals, samples, runs or records. ± marks the error that the study gave."}
{"SMILES": "CCCn1c2ccc([N+](=O)[O-])cc2c(=O)n1Cc1ccccc1", "tested on": "BALB/c mouse peritoneal macrophages", "test": "cytotoxicity, resazurin", "setting": "48 h, 10% fetal bovine serum", "measurement": "CC50", "value": "4.68 µM"}
{"SMILES": "OC[C@H]1O[C@@H](c2ccc(Cl)c(Cc3ccc(O)cc3)c2)[C@H](O)[C@@H](O)[C@@H]1O", "tested on": "H9c2", "test": "CCK-8", "setting": "0.1 µM, together with: glucose deprivation", "scale": "reference: control", "measurement": "viability", "value": "51.2 ± 1.48%"}
{"SMILES": "CC(C)C[C@H](NC(=O)[C@H](CC(N)=O)NC(=O)[C@H](CCCNC(=N)N)NC(=O)[C@@H](CC(C)C)NC(=O)[C@H](Cc1ccc(-c2ccccc2)cc1)NC(=O)[C@H](CC(=O)O)NC(=O)[C@H](CCCCN)NC(=O)[C@@H](CC(C)C)NC(=O)[C@H](CCCNC(=N)N)NC(=O)[C@H](CCC(N)=O)NC(=O)[C@@H](NC(=O)[C@@H](CC(C)C)NC(=O)[C@H](CCCNC(=N)N)NC(=O)[C@H](CCCCN)NC(=O)[C@H](Cc1ccc(-c2ccccc2)cc1)NC(=O)CN)C(C)C)C(=O)N[C@H](C(N)=O)C(C)C", "tested on": "human erythrocytes", "test": "hemolysis", "setting": "1 h, 37 °C", "scale": "reference: Triton X-100", "measurement": "HC50", "value": "150 µM"}
{"SMILES": "C=C1C(=O)OC2C1CCC(C)(O)C13C=CC(C)(C21)C1(C3)C(=O)OC2C3C(C)=CC(=O)C3=C(C)CCC21 (centres unmarked)", "tested on": "AML12 mouse hepatocytes", "test": "MTT", "setting": "24 h, 10% FBS", "measurement": "maximum safe concentration", "value": "20 µM"}
{"SMILES": "CCCCn1c2ccc([N+](=O)[O-])cc2c(=O)n1Cc1ccccc1", "tested on": "BALB/c mouse peritoneal macrophages", "test": "cytotoxicity, resazurin", "setting": "48 h, 10% fetal bovine serum", "measurement": "CC50", "value": "5.07 µM"}
{"SMILES": "COc1cc(N2CCN(C(=O)CCOCCNC(=O)[C@@H]3CCCN3)CC2)ccc1Nc1ncc(Cl)c(Nc2ccccc2P(C)(C)=O)n1", "tested on": "NCI-H3122", "test": "CCK-8", "setting": "0.5 µM, 48 h", "measurement": "viability", "value": "47% and 51% and 49%"}
{"SMILES": "[BH3-][P+]1(c2ccccc2)CCCCC1", "tested on": "PC-3", "test": "trypan blue", "setting": "IC50, 72 h", "measurement": "viability", "value": "92.7%"}
{"SMILES": "C=C1C(=O)OC2C1CCC(C)(O)C13C=CC(C)(C21)C1(C3)C(=O)OC2C3C(=C(C)CC(OC(C)=O)C21)CC(O)C3(C)Cl (centres unmarked)", "tested on": "AML12 mouse hepatocytes", "test": "MTT", "setting": "24 h, 10% FBS", "measurement": "maximum safe concentration", "value": "20 µM"}
{"SMILES": "Cl.NCc1ccc2c(c1)CN(C1CCC(=O)NC1=O)C2=O (centres unmarked)", "tested on": "SNU-398", "test": "CellTiter-Glo", "setting": "concentration not given, 72 h", "measurement": "minimum viability", "value": "30.7 ± 11.3%"}
{"SMILES": "O=C1NC2(CC2)COc2ncc(F)cc2[C@H]2COCCN2c2ccn3ncc1c3n2", "tested on": "CHL", "test": "chromosomal aberration test", "setting": "300 µg/mL, 4 h, with rat liver S9", "scale": "reference: solvent control", "measurement": "relative population doubling", "value": "55.1%"}
{"SMILES": "CC1OC2OC3C4=C(OC3(C)C12O)C(=O)c1c(O)cccc1C4=O (centres unmarked)", "tested on": "HFF", "test": "cell growth or viability, MTT", "setting": "48 h", "measurement": "CC50", "value": "12 µM"}
{"SMILES": "CC(C)C[C@H](NC(=O)[C@H](CC(N)=O)NC(=O)[C@H](CCCNC(=N)N)NC(=O)[C@@H](CC(C)C)NC(=O)[C@H](Cc1ccc(-c2ccccc2)cc1)NC(=O)[C@H](CC(=O)O)NC(=O)[C@H](CCCNC(=N)N)NC(=O)[C@@H](CC(C)C)NC(=O)[C@H](CCCCN)NC(=O)[C@H](CCC(N)=O)NC(=O)[C@@H](NC(=O)[C@@H](CC(C)C)NC(=O)[C@H](CCCCN)NC(=O)[C@H](CCCNC(=N)N)NC(=O)[C@H](Cc1ccc(-c2ccccc2)cc1)NC(=O)CN)C(C)C)C(=O)N[C@H](C(N)=O)C(C)C", "tested on": "human erythrocytes", "test": "hemolysis", "setting": "1 h, 37 °C", "scale": "reference: Triton X-100", "measurement": "HC50", "value": "100 µM"}
{"SMILES": "COc1cc(N2CCN(C(=O)C3CCCN3)CC2)ccc1Nc1ncc(Cl)c(Nc2ccccc2P(C)(C)=O)n1 (centres unmarked)", "tested on": "NCI-H3122", "test": "cell growth or viability, CCK-8", "setting": "0.5 µM, 48 h", "measurement": "viability", "value": "11% and 12%"}
{"SMILES": "CCOC(=O)c1c(C(=O)OC)cn(CC(c2cn(C)c3ccccc23)c2cn(C)c3ccccc23)c1C", "tested on": "DH82", "test": "cell growth or viability, MTS", "setting": "24 h", "measurement": "CC50", "value": "> 20 µM"}
{"SMILES": "CCN(CC)CC#CCNc1ccnc2cc(Cl)ccc12", "tested on": "Salmonella typhimurium", "test": "mini-Ames test", "system": "TA1535", "setting": "1000.0 µg/well, with rat liver S9", "measurement": "revertants per well", "value": 1}
{"SMILES": "COc1ccc(Cc2cc([C@@H]3O[C@H](CO)[C@@H](O)[C@H](O)[C@H]3O)ccc2Cl)cc1", "tested on": "H9c2", "test": "CCK-8", "setting": "0.1 µM, together with: glucose deprivation", "scale": "reference: control", "measurement": "viability", "value": "41.3 ± 1.09%"}
{"SMILES": "Cc1cccnc1-c1csc(C(=O)Nc2cc(Cl)cc(NS(C)(=O)=O)c2)c1", "tested on": "HLF1", "test": "cell growth or viability, ATP luminescence", "setting": "10 days", "measurement": "CC50", "value": "4.15 µM"}
{"SMILES": "CN1CCCNC(=O)c2cccc(c2)C(=O)NCCCN(C)CCCNc2cccc3c2C(=O)c2cccc(c2C3=O)NCCC1", "tested on": "mouse bone marrow cells", "test": "CCK-8", "setting": "0.015 µM, 48 h", "scale": "reference: untreated", "measurement": "viability", "value": "103%"}
{"SMILES": "C=C1C(=O)OC2C1CCC(C)(O)C13C=CC(C)(C21)C1(C3)C(=O)OC2C3C(C)=CC(O)C3C(=C)CC(OC(=O)C(C)=CC)C21 (centres unmarked)", "tested on": "AML12 mouse hepatocytes", "test": "MTT", "setting": "24 h, 10% FBS", "measurement": "maximum safe concentration", "value": "5 µM"}
{"SMILES": "COC1C(c2ccc(Cl)c(Cc3ccc(OC4CCOC4)cc3)c2)OC(CO)C(O)C1O (centres unmarked)", "tested on": "H9c2", "test": "CCK-8", "setting": "0.1 µM, together with: glucose deprivation", "scale": "reference: control", "measurement": "viability", "value": "49.6 ± 5.48%"}
{"SMILES": "C=C1C(=O)OC2C1CCC(C)(O)C13C=CC(C)(C21)C1(C3)C(=O)OC2C3C(=C(C)CC(OC(C)=O)C21)CC(Cl)C3(C)O (centres unmarked)", "tested on": "AML12 mouse hepatocytes", "test": "MTT", "setting": "24 h, 10% FBS", "measurement": "maximum safe concentration", "value": "10 µM"}
{"SMILES": "CC(C)(O)c1ncc([S@](N)(=O)=NC(=O)Nc2c3c(cc4c2CCC4)CCC3)s1", "test": "measured: musculoskeletal-connective tissue disorders", "system": "healthy human volunteers", "setting": "oral, 10 mg single dose, crystalline suspension", "measurement": "subjects with TEAEs", "value": "17%"}
{"SMILES": "C=C1C(=O)OC2C1CCC(C)(O)C13C=CC(C)(C21)C1(C3)C(=O)OC2C3C(C)=CCC3C(=C)CC(OC(C)=O)C21 (centres unmarked)", "tested on": "AML12 mouse hepatocytes", "test": "MTT", "setting": "24 h, 10% FBS", "measurement": "maximum safe concentration", "value": "10 µM"}
{"SMILES": "CC1CN(CCOCCSc2ccc(Cl)cc2)CC(C)O1.O=C(O)C(=O)O (centres unmarked)", "tested on": "Trypanosoma cruzi", "test": "reporter mRNA translation, inhibitor, measured: Renilla luciferase mRNA", "system": "cell-free extract", "setting": "concentration not given, test 1", "scale": "reference: positive over negative control", "measurement": "translation activity", "value": "113% and 114%"}
{"SMILES": "C=C1C(=O)OC2C1CCC(C)(O)C13C=CC(C)(C21)C1(C3)C(=O)OC2C3C(=C(C)CC(OC(=O)C(C)=CC)C21)CC(O)C3(C)Cl (centres unmarked)", "tested on": "AML12 mouse hepatocytes", "test": "MTT", "setting": "24 h, 10% FBS", "measurement": "maximum safe concentration", "value": "5 µM"}
{"SMILES": "C[N+](C)(CI)CCO", "tested on": "HK-2", "test": "cell growth or viability, ATP luminescence", "setting": "24 h", "measurement": "IC50", "value": "> 150 µM"}
{"SMILES": "C[S@@](=N)(=O)c1ccc(C(=O)Nc2cc(-c3ccc(F)cc3)ccc2N)cc1", "tested on": "KP mouse cells", "test": "RNA-seq", "setting": "1 µM, 7 days", "measurement": "transcriptome change", "value": "no effect"}
{"SMILES": "C=C1C(=O)OC2C1CCC(C)(O)C13C=CC(C)(C21)C1(C3)C(=O)OC2C3C(C)=CCC3(O)C(C)=CC(OC(C)=O)C21 (centres unmarked)", "tested on": "AML12 mouse hepatocytes", "test": "MTT", "setting": "24 h, 10% FBS", "measurement": "maximum safe concentration", "value": "10 µM"}
{"SMILES": "CC(C)OCCOCc1ccc(OCC(O)CN(N=O)C(C)C)cc1 (centres unmarked)", "tested on": "Escherichia coli", "test": "Ames test", "system": "WP2 uvrA", "setting": "50 µg/plate, 30 % rat S9", "scale": "reference: solvent control", "measurement": "revertant fold increase", "value": "0.9 fold"}
{"SMILES": "C[C@H](NP(=O)(O)OC[C@H]1O[C@@](C#N)(c2ccc3c(N)ncnn23)[C@H](O)[C@@H]1O)C(=O)O", "tested on": "primary human hepatocytes", "test": "spare respiratory capacity, Seahorse OCR", "setting": "4 h", "measurement": "CC50", "value": "> 100 µM"}
{"SMILES": "C=C1C(=O)OC2C1CCC(C)(O)C13C=CC(C)(C21)C1(C3)C(=O)OC2C3C(=C(C)CC(OC(=O)C=C(C)C)C21)CC(O)C3(C)Cl (centres unmarked)", "tested on": "AML12 mouse hepatocytes", "test": "MTT", "setting": "24 h, 10% FBS", "measurement": "maximum safe concentration", "value": "10 µM"}
{"SMILES": "CCN(Cc1ccc(C#CCCO)cc1)CC1CCCN(CCc2cccc(F)c2)C1 (centres unmarked)", "tested on": "Trypanosoma cruzi", "test": "reporter mRNA translation, inhibitor, measured: Renilla luciferase mRNA", "system": "cell-free extract", "setting": "concentration not given, test 1", "scale": "reference: positive over negative control", "measurement": "translation activity", "value": "145% and 131%"}
{"note": "For quick reference, copied from above:"}
{"SMILES": "CC(C)OCCOCc1ccc(OCC(O)CN(N=O)C(C)C)cc1 (centres unmarked)", "tested on": "Escherichia coli", "test": "Ames test", "system": "WP2 uvrA", "setting": "50 µg/plate, 30 % rat S9", "scale": "reference: solvent control", "measurement": "revertant fold increase", "value": "0.9 fold"}
{"SMILES": "C[C@H](NP(=O)(O)OC[C@H]1O[C@@](C#N)(c2ccc3c(N)ncnn23)[C@H](O)[C@@H]1O)C(=O)O", "tested on": "primary human hepatocytes", "test": "spare respiratory capacity, Seahorse OCR", "setting": "4 h", "measurement": "CC50", "value": "> 100 µM"}
{"SMILES": "C=C1C(=O)OC2C1CCC(C)(O)C13C=CC(C)(C21)C1(C3)C(=O)OC2C3C(=C(C)CC(OC(=O)C=C(C)C)C21)CC(O)C3(C)Cl (centres unmarked)", "tested on": "AML12 mouse hepatocytes", "test": "MTT", "setting": "24 h, 10% FBS", "measurement": "maximum safe concentration", "value": "10 µM"}
